Experimental data from different studies.
Protocols differ between the studies behind these lines.

O=C(O)c1ccc(/C=C2\SC(=S)N(Cc3cccc(C(F)(F)F)c3)C2=O)cc1  half-life (C57BL/6 mouse, blood; intravenous, 5 mg/kg): 1.8 h
CCC(=O)N1CCC=C(c2cc3c(Nc4cc5ncsc5cc4F)ncnc3s2)C1  half-life (mouse, plasma; intravenous, 10 mg/kg): 3.3 h
C[C@@H](Nc1nc2c(cnn2C(C)(C)C)c(=O)n1Cc1cccc(F)c1)c1ccc(Cl)cc1  half-life (C57BL/6 mouse, plasma; intravenous, 2.5 mg/kg): 9.5 h
COc1cnc2cccc(N3CCc4c(cc(Cn5ccnc5)cc4-c4cn(C)nc4C(F)(F)F)C3=O)c2c1  half-life (male CD-1 mouse, plasma; intraperitoneal, 100 mg/kg): 2.9 h
COc1cc(OCCN2CCOCC2)cnc1-c1nc2cc(OC(F)(F)F)ccc2[nH]1  half-life (mouse, plasma; intraperitoneal, 100 mg/kg): 4.05 h
O=C1C2CC3CC1CC(C(=O)N1CCN(c4ccc([N+](=O)[O-])c5ncccc45)CC1)(C3)C2  half-life (male CD-1 mouse, plasma; intravenous, 1 mg/kg): 0.224 h
COc1cccc2c(N3CCC(CCP(=O)(O)O)CC3)ncnc12  half-life (female C57BL/6 mouse, serum; subcutaneous, 50 mg/kg): 1.5 h
COc1ccccc1/C=C/CNCC(O)COc1ccc(Nc2ccccc2)cc1 (racemic)  half-life (mouse, plasma; intraperitoneal, 10 mg/kg): 7.94 h
Oc1ccc([C@@H]2Oc3ccc(O)cc3[C@@H]3CCC[C@@H]32)cc1  half-life (male C57BL/6 mouse, plasma; oral, 10 mg/kg): 3 h
CC[C@H](C)[C@@H]1NC(=O)[C@@](C)(NC(=O)[C@H](CCCNC(=N)N)NC(=O)[C@H](CC(C)C)NC(=O)[C@]2(C)CCCC=CCCC[C@](C)(NC(C)=O)C(=O)N[C@@H](CC(C)C)C(=O)N[C@@H](CCC(N)=O)C(=O)N2)CCCC=CCCC[C@@](C)(C(=O)N[C@@H](CC(C)C)C(=O)N[C@@H](Cc2ccc3ccccc3c2)C(=O)NCCC(=O)NCCC(N)=O)NC(=O)[C@H](CCCNC(=N)N)NC(=O)[C@H](CCC(N)=O)NC1=O  half-life (male BALB/c mouse, plasma; intraperitoneal, 30 mg/kg): 9.81 h
COC1C(c2ccc(Cl)c(Cc3ccc(OC4CCOC4)cc3)c2)OC(CO)C(O)C1O (stereo not drawn)  half-life (CD-1 mouse, plasma; oral, 10 mg/kg): 2.36 h
Nc1ccc(-c2cc(Cl)c(Cl)c3[nH]c4c(c23)CN(C(=O)CO)CC4)cn1  half-life (C57BL/6 mouse, blood; intravenous, 0.5 mg/kg): 0.421 h
OCCn1nc(-c2ccccc2)c2c(Cl)c(-c3ccccc3)nnc21  half-life (mouse, plasma; intraperitoneal, 3 mg/kg): 0.85 h
O=C1CCC(N2C(=O)c3ccc(N4CCC(C(=O)N5CCC(CCN6CCC(CNC(=O)c7cccc(-c8noc(C(F)(F)F)n8)c7)(c7nc(-c8ccccc8)cs7)CC6)CC5)CC4)cc3C2=O)C(=O)N1 (stereo not drawn)  half-life (CD-1 mouse, plasma; oral, 30 mg/kg): 1.23 h
CC(C)(C)c1cnc(CSc2cnc(NC(=O)C3CCN(C(=O)CCCCCCCN4Cc5cc6c(cc5C4)C(=O)N(C4CCC(=O)NC4=O)C6=O)CC3)s2)o1 (stereo not drawn)  half-life (mouse, plasma; intravenous, 2 mg/kg): 0.3 h
Cn1ccc(-c2cc(Cl)c(Cl)c3[nH]c4c(c23)CN(C(=O)CO)CC4)n1  half-life (C57BL/6 mouse, blood; oral, 100 mg/kg): 6.44 h
CC(C)(O)Cn1nc(-c2ccccc2)c2c(Cl)c(-c3ccccc3)nnc21  half-life (mouse, plasma; intraperitoneal, 10 mg/kg): 0.35 h
O=S(=O)(N[C@H]1CCC[C@@H](N2c3ccccc3CCc3ccccc32)[C@@H]1O)c1ccc(OC(F)(F)F)cc1  half-life (mouse, plasma; intravenous, 1 mg/kg): 2.1 h
CC(=O)N1c2ccc(-c3ccc(CNC(=O)c4cn5cc(-c6cnc(N)nc6)nc(N6CCOCC6)c5n4)cc3)cc2CC[C@@H]1C  half-life (female C57BL/6 mouse, plasma; intraperitoneal, 45 mg/kg, single dose): 1.7 h
CCC(=O)NC1CC=C(c2cc3c(Nc4cc5ncsc5cc4F)ncnc3s2)CC1 (racemic)  half-life (mouse, plasma; oral, 10 mg/kg): 5.16 h
COC(=O)C1=CNC=C(C(=O)OC)C1c1ccc(F)c(C(F)(F)F)c1  half-life (male C57BL/6 mouse, plasma; oral, 50 mg/kg): 2.31 h
CCn1cc(-c2cc(Cn3ccnc3)cc3c2CCN([C@H](c2cc(OC)ccn2)C2CC2)C3=O)c(C(F)(F)F)n1  half-life (male CD-1 mouse, plasma; oral, 50 mg/kg): 1.5 h
Cc1cc(NCCOC(C)C)c2nc(N3CCOC[C@H]3C)cc(=O)n2c1  half-life (C57BL/6 mouse, plasma; intraperitoneal, 10 mg/kg, single dose): 1.05 h
CCC1C(COc2nccc3cc(C(N)=O)c(OC)cc23)NC(=O)C1F (stereo not drawn)  half-life (CD-1 mouse, plasma; intravenous, 1 mg/kg): 13.6 h
C[C@@H](Nc1c(-c2c(F)cc(C#N)cc2F)c(Cl)nc2ncnn12)C(C)(C)C  half-life (male CD-1 mouse, plasma; oral, 20 mg/kg): 5.1 h
CC(=O)N1CCC=C(c2cc3c(Nc4cc5ncsc5cc4F)ncnc3s2)C1  half-life (mouse, plasma; oral, 10 mg/kg): 3.3 h
C[C@@]1(c2nc(-c3ccc(F)c4cn[nH]c34)no2)CCCN(C(=O)c2ccc(F)nc2)C1  half-life (male C57BL/6 mouse, plasma; intraperitoneal, 20 mg/kg): 2.16 h
O=C(Nc1ccc(C(F)F)cc1)[C@H](CC1CCCCC1)Nc1nn2c(=O)ccnc2s1  half-life (female nude mouse, plasma; oral, 10 mg/kg): 0.95 h
O=C(C1CC1)N1CCC=C(c2cc3c(Nc4cc5ncsc5cc4F)ncnc3s2)C1  half-life (mouse, plasma; oral, 10 mg/kg): 2.43 h
O=S(=O)(Nc1ccc(OC(F)(F)F)cc1)N1CCCC(C2c3ccc(F)cc3CCc3cc(F)ccc32)C1 (stereo not drawn)  half-life (mouse, plasma; oral, 30 mg/kg): 6.6 h
CC[C@H](C)/C=C/C=C/C=C/C(O)=C/C(=O)C(F)(F)Cl  half-life (female C57BL/6 mouse, plasma; oral, 25 mg/kg): 1.2 h
N#CCCC1CCN(C(=S)c2ccc(-c3cc(Cl)ccc3Cl)o2)CC1  half-life (male BALB/c mouse, plasma; intravenous, 5 mg/kg): 1.94 h
C/C(=N\Nc1ncnc2sc3c(c12)CCCC3)c1cc(O)ccc1O  half-life (CD-1 mouse, plasma; intraperitoneal, 10 mg/kg, single dose): 5.83 h
CC(C)NC(=O)NC1CC=C(c2cc3c(Nc4cc5ncsc5cc4F)ncnc3s2)CC1 (racemic)  half-life (mouse, plasma; intravenous, 10 mg/kg): 5.33 h
Cc1cc(NC(=O)[C@H](O)c2cc(F)cc(F)c2)ccc1-c1cnc(N)c(C(=O)NC(C)C)c1  half-life (female nude mouse, plasma; oral, 3 mg/kg, single dose): 1.8 h
Cc1cc(NCC(=O)C(C)C)c2nc(N3CCOC[C@H]3C)cc(=O)n2c1  half-life (C57BL/6 mouse, plasma; intraperitoneal, 10 mg/kg, single dose): 0.59 h
Cn1c2cc([S+](C)[O-])sc2c2cnn(Cc3cccc(N)c3)c(=O)c21 (stereo not drawn)  half-life (male BALB/c mouse, plasma; intravenous, 1 mg/kg, single dose): 5.8 h
Fc1cncc(-c2ccc3[nH]c4ncnc(N[C@H]5CC[C@H](N6CCOCC6)CC5)c4c3c2)c1  half-life (CD-1 mouse, plasma; oral, 10 mg/kg): 1.05 h
C/C(N)=N/C(=N\S(=O)(=O)c1ccc(C(F)(F)F)cc1)N1C[C@H](c2ccccc2)C(c2ccc(Cl)cc2)=N1  half-life (C57BL/6 mouse, kidney; intravenous, 10 mg/kg): 3 h

Excerpt of the above:
O=C(Nc1ccc(C(F)F)cc1)[C@H](CC1CCCCC1)Nc1nn2c(=O)ccnc2s1  half-life (female nude mouse, plasma; oral, 10 mg/kg): 0.95 h
O=C(C1CC1)N1CCC=C(c2cc3c(Nc4cc5ncsc5cc4F)ncnc3s2)C1  half-life (mouse, plasma; oral, 10 mg/kg): 2.43 h
O=S(=O)(Nc1ccc(OC(F)(F)F)cc1)N1CCCC(C2c3ccc(F)cc3CCc3cc(F)ccc32)C1 (stereo not drawn)  half-life (mouse, plasma; oral, 30 mg/kg): 6.6 h
CC[C@H](C)/C=C/C=C/C=C/C(O)=C/C(=O)C(F)(F)Cl  half-life (female C57BL/6 mouse, plasma; oral, 25 mg/kg): 1.2 h
N#CCCC1CCN(C(=S)c2ccc(-c3cc(Cl)ccc3Cl)o2)CC1  half-life (male BALB/c mouse, plasma; intravenous, 5 mg/kg): 1.94 h
C/C(=N\Nc1ncnc2sc3c(c12)CCCC3)c1cc(O)ccc1O  half-life (CD-1 mouse, plasma; intraperitoneal, 10 mg/kg, single dose): 5.83 h
